Results pooled from the literature.

NC(=O)C(c1ccccc1)(c1ccc(F)cc1)c1ccc(OCC[18F])cc1 (stereo not drawn) — stability (human serum; concentration not given, 120 min, 37 °C): stable
N[C@@H]1CCCC[C@H]1N.O=C1[O][Pt]2([O]C1=O)[O]C(=O)C(=O)[O]2 — stability (50 mM HCl; 24 h, 37 °C): stable
CCOC(=O)/C(C#N)=C/c1cccc(C(N)=O)c1 — stability (buffer with DTT): stable
CC(C)Cc1ccc(C(C)C(=O)[O][Pt]([NH2])([NH2])([Cl])([Cl])[O]C(=O)C(Cl)Cl)cc1 (stereo not drawn) — stability (HPLC; phosphate buffer; days, pH 7, 37 °C): stable
CC(C)C[C@@H]1NC(=O)[C@H]([C@@H](C)O)NC(=O)[C@H](Cc2ccccc2)NC(=O)CNC(=O)[C@H](Cc2c[nH]c3ccccc23)NC(=O)[C@H](Cc2c[nH]cn2)NC(=O)[C@H](C)NC(=O)[C@@H](N)CCCCNC(=O)C[C@@H](C(N)=O)NC1=O — stability (HPLC; DMEM/F-12 with 10% FBS; 3 h, 25 °C): stable
CCCC(CCC)C(=O)[O][Pt]([NH2])([NH2])([Cl])([Cl])[O]C(=O)C(C)c1ccc(CC(C)C)cc1 (stereo not drawn) — stability (HPLC; phosphate buffer; days, pH 7, 37 °C): stable
[2H]C([2H])([2H])NC(=O)c1ccc(N2C(=S)N(c3ccc(C#N)c(C(F)(F)F)c3)C(=O)C2(C)C)cc1F — stability (human plasma; 5352 h, -80 °C, storage -60 to -90 °C, 223 days): stable
COC(=O)/C=C/C(=O)c1ccc(OC)cc1 — stability (rat plasma; 12 h, room temperature): stable
CN1C(=O)CC[C@H]1c1ccc[n+]([O-])c1 — stability (human liver microsome extract; 24 h, 8 °C): ≤ 10 % variation
CCCCCC(=O)Cc1c[nH]c2nc3c(ncn3C3CC(O)C(CO)O3)c(=O)n12 (stereo not drawn) — stability (rat liver cytosol): stable
CSCOC1C(=O)C2(C)C(OCSC)CC3OCC3(OC(C)=O)C2C(OC(=O)c2ccccc2)C2(O)CC(OC(=O)C(O)C(C=C(C)C)NC(=O)OC(C)(C)C)C(C)=C1C2(C)C (stereo not drawn) — stability (HPLC-MS/MS; rat plasma; storage and freeze-thaw): stable
O=C(NC1CCCCC1)C(c1cccnc1)N(C(=O)CCl)c1ccc(F)cc1 (racemic) — stability (DPBS; 24 h, 37 °C): stable
